Assay results of several laboratories.
Compare with care: the assays were run in different laboratories. ± gives the spread as reported.

Under “acute toxic concentration”, `CC[C@H](C)[C@H](NC(=O)[C@H](C)NC(=O)CNC(=O)[C@H](CCCCN)NC(=O)[C@@H](NC(=O)[C@H](CC(C)C)NC(=O)[C@H](C)NC(=O)CNC(=O)[C@H](CC(C)C)NC(=O)[C@@H](N)Cc1ccccc1)[C@@H](C)CC)C(=O)N[C@@H](Cc1c[nH]cn1)C(=O)NCC(=O)NCC(=O)N[C@@H](CCCNC(=N)N)C(=O)N[C@@H](Cc1ccccc1)C(=O)N[C@H](C(=O)N[C@@H](Cc1c[nH]cn1)C(=O)NCC(=O)N[C@@H](CCSC)C(=O)N[C@H](C(=O)N[C@@H](CCC(N)=O)C(=O)N[C@@H](CC(N)=O)C(=O)N[C@@H](Cc1c[nH]cn1)C(=O)N[C@@H](Cc1c[nH]cn1)C(N)=O)[C@@H](C)CC)[C@@H](C)CC` is recorded as 5 to 25 µg/mL (zebrafish embryos; 1 h, 4, 28, 52 hpf).
`C[C@@H]1CCCN1CCc1cc2cc(C(=O)c3ccc([18F])cc3)ccc2o1` — result for “time of peak uptake”: roughly 27.5 min (rhesus monkey, striatum; baseline).
With `CC(=CCC(O)C(C)=Cc1csc(C)n1)CC=CC(C)C(O)C(C)C(=O)C(C)(C)C(O)CC(=O)O` (stereo not shown) the AUC ratio was 6.62 ± 1.69% (human, plasma; intravenous infusion, 8.5 mg/m2 KOS-1584, 3 h infusion, cycle 1; relative to: metabolite over KOS-1584).
With `CC(C)C[C@@H](NC(=O)[C@@H](Cc1ccccc1)NC(=O)[C@H](N)Cc1ccccc1)C(=O)N[C@H](CCCCN)C(=O)N1CCC(N)(C(=O)O)CC1` the AUC(0-t) was 94 ng·h/mL (human, plasma; intravenous, 5 µg/kg).
`CC[C@H](C)C(=O)N1CCC(NC(=O)Nc2ccc(OC(F)(F)F)c(F)c2)CC1` — result for “subjects with severe TEAE”: 0% (healthy volunteers; oral, 2 mg single dose, 14 (unit not given)).
For `CC(C)[C@H](NC(=O)CNC(=O)[C@H](CCC(N)=O)NC(=O)[C@H](C)N)C(=O)O`, “subjects with adverse events” read 0% (Definitely drug-related; human; 20 mg/kg, 3 days, thrice daily dosing).
`O=C(CN1CCN(c2cc3c(cc2F)c(=O)c(C(=O)O)cn3C2CC2)CC1)Nc1ccc(Cl)cc1`: “elimination rate constant k10” 0.00203 min⁻¹ (female BALB/c mice; intravenous, 1.25 mg/kg, one-compartment model).
The accuracy of `CC(C)C[C@@H](N)C(=O)NCC(=O)N[C@H](C)C(=O)N[C@H](CO)C(=O)N[C@H](Cc1c[nH]c2ccccc12)C(=O)N[C@H](Cc1c[nH]cn1)C(=O)N[C@H](CCCNC(=N)N)C(=O)N1CCC[C@@H]1C(=O)N[C@H](CC(=O)O)C(=O)N[C@H](CCCCN)C(=O)N[C@H](CS)C(=O)N[C@H](CS)C(=O)N[C@H](CC(C)C)C(=O)NCC(=O)N[C@H](Cc1ccc(O)cc1)C(=O)N[C@H](CCC(N)=O)C(=O)N[C@H](CCCCN)C(=O)N[C@H](CCCNC(=N)N)C(=O)N1CCC[C@@H]1C(=O)N[C@H](CC(C)C)C(=O)N1CCC[C@@H]1C(N)=O` is reported as 111% (LC-MS/MS; rat plasma; 5000 ng/mL, 30 days, -80 °C, storage; relative to: nominal).
`[11CH3]n1c(=O)n(CCCO)c(=O)c2c1nc(Oc1cccc(OC(F)(F)F)c1)n2Cc1ccc(Cl)cc1` has a tracer uptake of 0.94 ± 0.2 %ID/g (ex vivo biodistribution; Sprague Dawley rat, pancreas; 60 min post injection).
For `N#CC1(c2ccc3c(N)ncnn23)OC(COP(=O)(O)OP(=O)(O)OP(=O)(O)O)C(O)C1O` (stereo not shown), the Cmax was 5250 nmol/kg (LC-MS/MS; CD-1 mouse, liver; oral, 100 mg/kg of remdesivir).

A few entries again:
`CC[C@H](C)C(=O)N1CCC(NC(=O)Nc2ccc(OC(F)(F)F)c(F)c2)CC1` — result for “subjects with severe TEAE”: 0% (healthy volunteers; oral, 2 mg single dose, 14 (unit not given)).
With `CC(=CCC(O)C(C)=Cc1csc(C)n1)CC=CC(C)C(O)C(C)C(=O)C(C)(C)C(O)CC(=O)O` (stereo not shown) the AUC ratio was 6.62 ± 1.69% (human, plasma; intravenous infusion, 8.5 mg/m2 KOS-1584, 3 h infusion, cycle 1; relative to: metabolite over KOS-1584).
